Published values from different studies.
Every numbered part comes from another study and shows a few of its results, in no order.
Chain of UniProt P42336 (whole entry, unmodified, looked up): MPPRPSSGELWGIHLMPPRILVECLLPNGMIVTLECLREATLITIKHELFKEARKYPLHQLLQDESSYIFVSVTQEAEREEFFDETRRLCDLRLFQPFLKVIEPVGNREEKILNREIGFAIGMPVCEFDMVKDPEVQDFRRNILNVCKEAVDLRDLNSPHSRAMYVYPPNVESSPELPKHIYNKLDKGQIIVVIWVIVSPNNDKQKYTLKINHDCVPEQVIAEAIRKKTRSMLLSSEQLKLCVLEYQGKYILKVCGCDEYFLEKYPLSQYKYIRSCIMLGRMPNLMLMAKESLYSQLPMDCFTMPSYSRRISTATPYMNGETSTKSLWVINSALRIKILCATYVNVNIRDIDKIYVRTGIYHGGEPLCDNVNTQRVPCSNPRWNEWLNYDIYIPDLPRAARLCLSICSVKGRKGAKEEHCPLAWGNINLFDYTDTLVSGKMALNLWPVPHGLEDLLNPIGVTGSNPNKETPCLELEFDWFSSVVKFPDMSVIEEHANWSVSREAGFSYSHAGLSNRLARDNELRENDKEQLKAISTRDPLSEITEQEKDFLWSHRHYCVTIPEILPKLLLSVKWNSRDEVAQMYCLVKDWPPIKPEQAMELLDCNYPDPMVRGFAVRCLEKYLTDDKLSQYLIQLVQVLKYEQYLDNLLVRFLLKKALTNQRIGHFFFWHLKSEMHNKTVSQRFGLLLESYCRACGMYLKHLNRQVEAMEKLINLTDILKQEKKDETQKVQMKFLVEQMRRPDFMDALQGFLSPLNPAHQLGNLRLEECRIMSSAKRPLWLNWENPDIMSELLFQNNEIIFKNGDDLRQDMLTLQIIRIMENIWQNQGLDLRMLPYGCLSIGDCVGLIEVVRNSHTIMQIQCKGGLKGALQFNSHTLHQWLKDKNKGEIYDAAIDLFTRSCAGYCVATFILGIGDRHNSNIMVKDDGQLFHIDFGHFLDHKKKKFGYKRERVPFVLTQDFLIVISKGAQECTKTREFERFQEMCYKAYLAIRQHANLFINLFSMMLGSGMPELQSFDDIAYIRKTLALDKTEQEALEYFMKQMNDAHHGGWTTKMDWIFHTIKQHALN
Chain of UniProt P00519 (whole entry, unmodified, looked up): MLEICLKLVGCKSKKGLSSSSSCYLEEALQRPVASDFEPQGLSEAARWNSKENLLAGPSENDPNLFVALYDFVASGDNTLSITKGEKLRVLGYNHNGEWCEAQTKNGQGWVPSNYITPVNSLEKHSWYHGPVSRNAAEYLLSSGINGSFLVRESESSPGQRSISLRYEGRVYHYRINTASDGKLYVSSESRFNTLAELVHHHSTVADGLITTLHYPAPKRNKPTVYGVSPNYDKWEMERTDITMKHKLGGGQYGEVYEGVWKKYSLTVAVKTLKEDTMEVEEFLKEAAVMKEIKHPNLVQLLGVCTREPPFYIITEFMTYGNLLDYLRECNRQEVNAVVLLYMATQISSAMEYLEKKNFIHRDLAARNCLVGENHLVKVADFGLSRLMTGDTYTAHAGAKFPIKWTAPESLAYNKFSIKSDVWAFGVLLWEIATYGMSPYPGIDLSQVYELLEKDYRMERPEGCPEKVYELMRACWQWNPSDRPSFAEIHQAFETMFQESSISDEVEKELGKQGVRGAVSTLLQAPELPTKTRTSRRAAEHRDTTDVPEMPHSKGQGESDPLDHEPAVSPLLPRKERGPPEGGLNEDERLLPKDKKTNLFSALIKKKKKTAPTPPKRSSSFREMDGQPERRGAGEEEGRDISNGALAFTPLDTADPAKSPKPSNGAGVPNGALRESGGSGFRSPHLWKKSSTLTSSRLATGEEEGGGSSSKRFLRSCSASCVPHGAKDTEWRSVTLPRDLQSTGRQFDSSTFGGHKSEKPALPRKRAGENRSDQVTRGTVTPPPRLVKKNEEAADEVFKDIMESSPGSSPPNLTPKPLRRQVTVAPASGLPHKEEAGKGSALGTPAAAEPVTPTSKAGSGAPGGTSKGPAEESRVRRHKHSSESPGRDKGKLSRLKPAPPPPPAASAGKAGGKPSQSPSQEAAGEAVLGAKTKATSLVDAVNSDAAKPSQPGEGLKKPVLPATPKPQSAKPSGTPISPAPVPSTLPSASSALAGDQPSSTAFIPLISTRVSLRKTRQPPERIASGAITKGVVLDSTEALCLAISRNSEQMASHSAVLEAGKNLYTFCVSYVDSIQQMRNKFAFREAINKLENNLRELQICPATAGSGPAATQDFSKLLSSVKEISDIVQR
Chain of UniProt P10721 (whole entry, unmodified, looked up): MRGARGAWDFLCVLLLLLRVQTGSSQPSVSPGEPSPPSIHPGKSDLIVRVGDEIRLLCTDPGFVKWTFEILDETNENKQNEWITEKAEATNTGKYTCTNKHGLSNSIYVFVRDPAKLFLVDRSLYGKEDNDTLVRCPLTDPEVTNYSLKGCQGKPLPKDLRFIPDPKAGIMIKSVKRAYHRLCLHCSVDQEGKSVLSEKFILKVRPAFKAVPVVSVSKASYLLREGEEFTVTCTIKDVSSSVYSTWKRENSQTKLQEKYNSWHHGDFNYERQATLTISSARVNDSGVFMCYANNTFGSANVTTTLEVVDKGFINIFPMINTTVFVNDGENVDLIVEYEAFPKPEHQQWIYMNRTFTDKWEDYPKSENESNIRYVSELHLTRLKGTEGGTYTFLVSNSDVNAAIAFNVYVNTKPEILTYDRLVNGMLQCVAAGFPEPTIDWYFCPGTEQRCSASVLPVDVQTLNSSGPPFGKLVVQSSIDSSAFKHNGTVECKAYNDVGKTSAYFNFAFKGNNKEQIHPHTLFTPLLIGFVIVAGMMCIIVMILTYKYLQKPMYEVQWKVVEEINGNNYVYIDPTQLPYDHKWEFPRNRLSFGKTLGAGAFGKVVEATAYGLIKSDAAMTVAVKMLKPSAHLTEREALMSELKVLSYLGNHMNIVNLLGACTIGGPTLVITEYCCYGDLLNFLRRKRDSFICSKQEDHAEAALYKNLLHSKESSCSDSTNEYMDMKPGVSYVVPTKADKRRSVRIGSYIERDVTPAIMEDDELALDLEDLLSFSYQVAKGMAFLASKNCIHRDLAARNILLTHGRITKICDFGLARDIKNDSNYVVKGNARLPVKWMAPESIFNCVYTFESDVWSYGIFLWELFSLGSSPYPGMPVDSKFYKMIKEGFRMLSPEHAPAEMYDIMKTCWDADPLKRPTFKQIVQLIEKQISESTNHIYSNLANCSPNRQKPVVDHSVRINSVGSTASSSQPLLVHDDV
Chain of UniProt Q8TDX7 (whole entry, looked up): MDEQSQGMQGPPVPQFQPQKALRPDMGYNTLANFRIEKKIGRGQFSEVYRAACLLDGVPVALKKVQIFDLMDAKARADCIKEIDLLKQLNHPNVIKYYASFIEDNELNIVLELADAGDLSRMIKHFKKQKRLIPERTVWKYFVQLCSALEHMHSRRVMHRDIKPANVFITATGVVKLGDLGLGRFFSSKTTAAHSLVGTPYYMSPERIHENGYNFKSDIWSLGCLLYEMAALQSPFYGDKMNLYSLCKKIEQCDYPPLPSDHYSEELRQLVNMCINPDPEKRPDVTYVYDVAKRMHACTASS

Set 1
SMILES: CCN1/C(=C/C=C2\CCCC(/C=C/C3=[N+](CC)c4ccccc4C3(C)C)=C2NCCCCCCCCN2CCC(Nc3nc4ccccc4n3Cc3ccc(F)cc3)CC2)C(C)(C)c2ccccc21
Cell line: U-87 MG
Tested at: concentration not given
Baseline: DMSO
Endpoint: log2 fold change
refers to = CCN2 mRNA; result = -4.53
refers to = UHRF1BP1 mRNA; result = 0.845
refers to = RSRC2 mRNA; result = 1.02
refers to = AJM1 mRNA; result = -0.997
refers to = APOL3 mRNA; result = -1.55
refers to = TROAP mRNA; result = -1.86
refers to = TTC29 mRNA; result = 2.64
refers to = KY; result = -2.22
refers to = SARDH mRNA; result = -1.48
refers to = KIF18A mRNA; result = -2.1
refers to = HS3ST2 mRNA; result = 3.24
refers to = SERPINB2 mRNA; result = 1.68
refers to = APOLD1 mRNA; result = -1.08
refers to = YJU2B mRNA; result = 0.819
refers to = PAQR4 mRNA; result = -1.82
refers to = PROX1 mRNA; result = 2.5

Set 2
SMILES: COc1cc(-c2nc3ccc(C(=O)NCCCN4CCN(c5cccc(C)c5C)CC4)cc3n2C2CCC2)cc(OC)c1OC
Observed: binding
Method: competition with immobilised ligand
Tested at: 1 µM
Endpoint: remaining binding
target = MAPK8 (Homo sapiens, UniProt P45983); result = 97%
target = HUNK (Homo sapiens, UniProt P57058); result = 100%
target = Tyrosine-protein kinase ABL1, phosphorylated (ABL1, Homo sapiens, UniProt P00519, F317L); result = 99%
target = DSTYK (Homo sapiens, UniProt Q6XUX3); result = 78%
target = COQ8B (Homo sapiens, UniProt Q96D53); result = 99%
target = CAMK1D (Homo sapiens, UniProt Q8IU85); result = 95%
target = WNK4 (Homo sapiens, UniProt Q96J92); result = 100%
target = KIT (Homo sapiens, UniProt P10721, V559D); result = 98%
target = NEK7 (Homo sapiens, UniProt Q8TDX7); result = 97%
target = TSSK1B (Homo sapiens, UniProt Q9BXA7); result = 95%
target = WEE1 (Homo sapiens, UniProt P30291); result = 89%
target = PIK3CA (Homo sapiens, UniProt P42336, M1043I); result = 100%
target = Ribosomal protein S6 kinase alpha-2, N-terminal kinase domain (RPS6KA2, Homo sapiens, UniProt Q15349); result = 81%
target = PIK3CA (Homo sapiens, UniProt P42336, Q546K); result = 97%
target = NTRK3 (Homo sapiens, UniProt Q16288); result = 100%
target = Tyrosine-protein kinase ABL1, phosphorylated (ABL1, Homo sapiens, UniProt P00519, F317I); result = 84%
target = EPHA6 (Homo sapiens, UniProt Q9UF33); result = 92%

Set 3
Compound: CC[C@@]1(c2cccc(C(F)(F)F)c2)C2=C(Nc3n[nH]cc31)[C@H](F)C(C)(C)CC2=O (single isomer, unassigned)
Tested at: 1 µM
Endpoint: remaining binding
target = DCLK2 (Homo sapiens, UniProt Q8N568); observed = binding; method = competition with immobilised ligand; result = 100%
target = NUAK1 (Homo sapiens, UniProt O60285); observed = kinase binding; method = KINOMEscan; baseline = DMSO control; result = 91%
target = PIK3CA (Homo sapiens, UniProt P42336, I800L); observed = binding; method = competition with immobilised ligand; result = 24%
target = LRRK2 (Homo sapiens, UniProt Q5S007); observed = kinase binding; method = KINOMEscan; baseline = DMSO control; result = 79%
target = PIK3CD (Homo sapiens, UniProt O00329); observed = binding; method = competition with immobilised ligand; result = 100%
target = KIT (Homo sapiens, UniProt P10721, A829P); observed = binding; method = competition with immobilised ligand; result = 100%
target = CHEK2 (Homo sapiens, UniProt O96017); observed = binding; method = competition with immobilised ligand; result = 100%
target = PAK5 (Homo sapiens, UniProt Q9P286); observed = kinase binding; method = KINOMEscan; baseline = DMSO control; result = 93%
target = ULK1 (Homo sapiens, UniProt O75385); observed = binding; method = competition with immobilised ligand; result = 98%
target = GSK3A (Homo sapiens, UniProt P49840); observed = kinase binding; method = KINOMEscan; baseline = DMSO control; result = 0.55%
target = PDGFRA (Homo sapiens, UniProt P16234); observed = binding; method = competition with immobilised ligand; result = 100%
target = PIK3C3 (Homo sapiens, UniProt Q8NEB9); observed = kinase binding; method = KINOMEscan; baseline = DMSO control; result = 97%
target = NUAK2 (Homo sapiens, UniProt Q9H093); observed = kinase binding; method = KINOMEscan; baseline = DMSO control; result = 100%
target = CAMK2B (Homo sapiens, UniProt Q13554); observed = kinase binding; method = KINOMEscan; baseline = DMSO control; result = 64%
target = EPHA3 (Homo sapiens, UniProt P29320); observed = binding; method = competition with immobilised ligand; result = 27%
target = PIP5K1A (Homo sapiens, UniProt Q99755); observed = binding; method = competition with immobilised ligand; result = 81%
target = BRAF (Homo sapiens, UniProt P15056, V600E); observed = binding; method = competition with immobilised ligand; result = 98%
target = FLT3 (Homo sapiens, UniProt P36888, K663Q); observed = kinase binding; method = KINOMEscan; baseline = DMSO control; result = 68%

Set 4
SMILES: C[C@@H]1CN(c2ccc(-c3cc(C(=O)NCCOCCOCCOCCOCCOCCOCCNC(=O)/C=C/c4[nH]cc(C(=O)N[C@@H](CC(N)=O)c5ccc(F)c(Cl)c5)c4-c4ccc(Cl)cc4F)ccc3F)cc2NC(=O)c2ccc(F)cc2C(F)(F)F)C[C@H](C)N1C
Observed: thermal unfolding
Method: differential scanning fluorimetry
Tested at: 5.5 µM
Reading: higher = more unfolded
Endpoint: SYPRO Orange fluorescence
DCAF1: DDB1- and CUL4-associated factor 1 (DCAF1, Homo sapiens, UniProt Q9Y4B6)
Chain of UniProt Q9Y4B6 (whole entry, looked up): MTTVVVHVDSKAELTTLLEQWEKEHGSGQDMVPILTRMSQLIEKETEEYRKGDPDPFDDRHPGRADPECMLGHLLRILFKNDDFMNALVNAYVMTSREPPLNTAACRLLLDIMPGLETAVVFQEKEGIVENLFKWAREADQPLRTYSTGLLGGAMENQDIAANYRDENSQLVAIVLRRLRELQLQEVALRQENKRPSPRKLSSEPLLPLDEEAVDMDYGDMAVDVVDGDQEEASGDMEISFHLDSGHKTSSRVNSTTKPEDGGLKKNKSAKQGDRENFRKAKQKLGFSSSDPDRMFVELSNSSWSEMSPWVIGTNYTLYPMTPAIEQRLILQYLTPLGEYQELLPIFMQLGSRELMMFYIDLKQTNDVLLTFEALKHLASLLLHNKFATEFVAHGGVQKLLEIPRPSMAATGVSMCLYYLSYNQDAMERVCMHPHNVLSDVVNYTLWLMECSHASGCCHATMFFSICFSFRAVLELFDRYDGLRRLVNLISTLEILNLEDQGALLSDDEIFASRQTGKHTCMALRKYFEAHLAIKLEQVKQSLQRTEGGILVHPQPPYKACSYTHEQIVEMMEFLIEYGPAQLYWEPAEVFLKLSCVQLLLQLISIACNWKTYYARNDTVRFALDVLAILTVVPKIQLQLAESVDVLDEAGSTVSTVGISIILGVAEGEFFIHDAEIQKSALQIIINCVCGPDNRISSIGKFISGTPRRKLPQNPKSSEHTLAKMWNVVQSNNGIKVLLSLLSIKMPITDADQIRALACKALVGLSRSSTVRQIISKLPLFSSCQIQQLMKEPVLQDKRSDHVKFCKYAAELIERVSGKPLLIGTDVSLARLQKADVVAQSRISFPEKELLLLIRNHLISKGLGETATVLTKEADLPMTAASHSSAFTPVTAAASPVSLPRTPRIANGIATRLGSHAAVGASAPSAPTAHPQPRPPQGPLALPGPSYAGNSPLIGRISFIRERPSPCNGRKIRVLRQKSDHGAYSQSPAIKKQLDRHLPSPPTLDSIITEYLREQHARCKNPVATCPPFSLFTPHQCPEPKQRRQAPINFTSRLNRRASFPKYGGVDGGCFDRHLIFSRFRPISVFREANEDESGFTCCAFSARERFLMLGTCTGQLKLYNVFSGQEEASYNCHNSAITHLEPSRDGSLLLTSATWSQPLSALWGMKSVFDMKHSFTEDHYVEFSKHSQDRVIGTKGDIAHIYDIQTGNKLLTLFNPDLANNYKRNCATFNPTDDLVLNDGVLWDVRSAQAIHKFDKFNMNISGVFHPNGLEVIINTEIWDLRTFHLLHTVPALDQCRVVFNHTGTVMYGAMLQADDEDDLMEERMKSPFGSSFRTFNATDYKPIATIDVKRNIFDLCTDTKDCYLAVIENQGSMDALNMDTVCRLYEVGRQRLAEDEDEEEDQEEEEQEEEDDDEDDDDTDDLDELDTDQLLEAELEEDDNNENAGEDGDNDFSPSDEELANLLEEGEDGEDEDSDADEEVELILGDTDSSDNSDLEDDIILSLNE
WDR5: WD repeat-containing protein 5 (WDR5, Homo sapiens, UniProt P61964)
target = DCAF1; temperature = 46.4 °C; result = 15300 a.u.
target = WDR5; temperature = 52.61 °C; result = 16600 a.u.
target = DCAF1; temperature = 32 °C; result = 8990 a.u.
target = DCAF1; temperature = 56.21 °C; result = 31200 a.u.
target = WDR5; temperature = 63.61 °C; result = 15500 a.u.
target = WDR5; temperature = 67.01 °C; result = 19200 a.u.
target = DCAF1; temperature = 83.21 °C; result = 37500 a.u.
target = DCAF1; temperature = 94.21 °C; result = 29200 a.u.
target = WDR5; temperature = 41.8 °C; result = 14300 a.u.
target = DCAF1; temperature = 42.4 °C; result = 13100 a.u.
target = DCAF1; temperature = 64.61 °C; result = 53800 a.u.

Repeated from above (set 3):
target = KIT (Homo sapiens, UniProt P10721, A829P); observed = binding; method = competition with immobilised ligand; result = 100%
target = ULK1 (Homo sapiens, UniProt O75385); observed = binding; method = competition with immobilised ligand; result = 98%
target = PIK3CA (Homo sapiens, UniProt P42336, I800L); observed = binding; method = competition with immobilised ligand; result = 24%
target = PAK5 (Homo sapiens, UniProt Q9P286); observed = kinase binding; method = KINOMEscan; baseline = DMSO control; result = 93%
target = NUAK2 (Homo sapiens, UniProt Q9H093); observed = kinase binding; method = KINOMEscan; baseline = DMSO control; result = 100%
target = NUAK1 (Homo sapiens, UniProt O60285); observed = kinase binding; method = KINOMEscan; baseline = DMSO control; result = 91%
target = BRAF (Homo sapiens, UniProt P15056, V600E); observed = binding; method = competition with immobilised ligand; result = 98%
target = PIK3CD (Homo sapiens, UniProt O00329); observed = binding; method = competition with immobilised ligand; result = 100%
target = EPHA3 (Homo sapiens, UniProt P29320); observed = binding; method = competition with immobilised ligand; result = 27%
